# Results collected from several papers.
# Lines come from different studies, so protocols differ. Numbers after ± are the reported error.
# AKR1C3: Aldo-keto reductase family 1 member C3 (AKR1C3, Homo sapiens, UniProt P42330)
# Chain of UniProt P42330 (whole entry, looked up): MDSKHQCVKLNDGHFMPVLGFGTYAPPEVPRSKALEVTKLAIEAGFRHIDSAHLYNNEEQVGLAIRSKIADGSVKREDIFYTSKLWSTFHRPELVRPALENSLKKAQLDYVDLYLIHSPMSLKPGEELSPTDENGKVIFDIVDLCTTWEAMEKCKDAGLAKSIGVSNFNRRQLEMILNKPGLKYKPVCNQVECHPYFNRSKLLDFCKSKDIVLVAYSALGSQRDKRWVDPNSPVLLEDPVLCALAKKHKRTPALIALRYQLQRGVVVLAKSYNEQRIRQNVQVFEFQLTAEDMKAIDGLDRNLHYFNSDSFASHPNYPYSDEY
# Chain of UniProt P08581 (whole entry, looked up): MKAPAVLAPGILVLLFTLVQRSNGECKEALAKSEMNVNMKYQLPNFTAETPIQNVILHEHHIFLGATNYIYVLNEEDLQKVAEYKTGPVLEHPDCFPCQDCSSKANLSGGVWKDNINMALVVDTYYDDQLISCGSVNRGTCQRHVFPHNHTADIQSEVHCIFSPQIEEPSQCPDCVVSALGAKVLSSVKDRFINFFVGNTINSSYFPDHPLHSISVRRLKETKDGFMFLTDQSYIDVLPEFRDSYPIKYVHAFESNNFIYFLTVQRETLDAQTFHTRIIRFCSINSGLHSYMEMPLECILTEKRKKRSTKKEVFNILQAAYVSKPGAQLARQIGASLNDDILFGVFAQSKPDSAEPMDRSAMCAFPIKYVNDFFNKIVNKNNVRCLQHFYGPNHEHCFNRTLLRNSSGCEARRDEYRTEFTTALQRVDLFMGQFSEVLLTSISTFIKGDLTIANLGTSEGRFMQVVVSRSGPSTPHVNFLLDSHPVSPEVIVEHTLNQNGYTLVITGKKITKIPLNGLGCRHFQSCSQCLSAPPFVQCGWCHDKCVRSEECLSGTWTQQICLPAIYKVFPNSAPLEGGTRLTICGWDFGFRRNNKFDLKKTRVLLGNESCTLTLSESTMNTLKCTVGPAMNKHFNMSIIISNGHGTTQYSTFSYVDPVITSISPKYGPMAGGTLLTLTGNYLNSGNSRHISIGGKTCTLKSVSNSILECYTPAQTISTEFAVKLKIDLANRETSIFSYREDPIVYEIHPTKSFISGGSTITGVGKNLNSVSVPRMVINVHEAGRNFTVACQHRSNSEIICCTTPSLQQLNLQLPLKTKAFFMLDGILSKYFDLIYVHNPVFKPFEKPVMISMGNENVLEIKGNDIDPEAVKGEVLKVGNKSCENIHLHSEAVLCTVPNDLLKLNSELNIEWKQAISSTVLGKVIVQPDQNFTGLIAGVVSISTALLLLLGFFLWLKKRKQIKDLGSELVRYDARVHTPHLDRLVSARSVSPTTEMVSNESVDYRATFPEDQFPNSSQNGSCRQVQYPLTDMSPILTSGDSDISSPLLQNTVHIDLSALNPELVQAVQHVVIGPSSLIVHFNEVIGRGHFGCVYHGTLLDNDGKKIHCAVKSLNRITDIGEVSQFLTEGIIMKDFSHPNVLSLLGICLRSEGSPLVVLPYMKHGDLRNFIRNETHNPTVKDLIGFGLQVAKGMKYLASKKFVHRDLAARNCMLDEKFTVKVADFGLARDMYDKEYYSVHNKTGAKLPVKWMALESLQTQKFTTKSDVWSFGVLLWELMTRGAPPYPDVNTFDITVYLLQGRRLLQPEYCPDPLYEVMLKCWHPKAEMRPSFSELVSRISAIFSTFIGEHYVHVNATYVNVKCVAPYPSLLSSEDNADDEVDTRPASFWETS
# Chain of UniProt Q9Y5L3 (whole entry, looked up): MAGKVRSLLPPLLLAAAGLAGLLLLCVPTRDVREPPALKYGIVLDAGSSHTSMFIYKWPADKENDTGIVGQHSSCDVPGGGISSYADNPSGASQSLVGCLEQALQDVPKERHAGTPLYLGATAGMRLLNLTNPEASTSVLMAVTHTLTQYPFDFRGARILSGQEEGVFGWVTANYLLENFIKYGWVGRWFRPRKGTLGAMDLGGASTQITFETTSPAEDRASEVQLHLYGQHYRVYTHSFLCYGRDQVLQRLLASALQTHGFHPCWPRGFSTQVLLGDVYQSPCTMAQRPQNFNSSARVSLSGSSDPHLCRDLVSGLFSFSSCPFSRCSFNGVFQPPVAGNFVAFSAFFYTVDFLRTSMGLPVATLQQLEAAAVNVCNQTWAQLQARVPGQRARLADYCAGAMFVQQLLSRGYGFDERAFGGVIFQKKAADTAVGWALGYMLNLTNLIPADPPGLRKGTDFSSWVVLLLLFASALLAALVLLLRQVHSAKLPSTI
# Chain of UniProt Q9UQL6 (whole entry, looked up): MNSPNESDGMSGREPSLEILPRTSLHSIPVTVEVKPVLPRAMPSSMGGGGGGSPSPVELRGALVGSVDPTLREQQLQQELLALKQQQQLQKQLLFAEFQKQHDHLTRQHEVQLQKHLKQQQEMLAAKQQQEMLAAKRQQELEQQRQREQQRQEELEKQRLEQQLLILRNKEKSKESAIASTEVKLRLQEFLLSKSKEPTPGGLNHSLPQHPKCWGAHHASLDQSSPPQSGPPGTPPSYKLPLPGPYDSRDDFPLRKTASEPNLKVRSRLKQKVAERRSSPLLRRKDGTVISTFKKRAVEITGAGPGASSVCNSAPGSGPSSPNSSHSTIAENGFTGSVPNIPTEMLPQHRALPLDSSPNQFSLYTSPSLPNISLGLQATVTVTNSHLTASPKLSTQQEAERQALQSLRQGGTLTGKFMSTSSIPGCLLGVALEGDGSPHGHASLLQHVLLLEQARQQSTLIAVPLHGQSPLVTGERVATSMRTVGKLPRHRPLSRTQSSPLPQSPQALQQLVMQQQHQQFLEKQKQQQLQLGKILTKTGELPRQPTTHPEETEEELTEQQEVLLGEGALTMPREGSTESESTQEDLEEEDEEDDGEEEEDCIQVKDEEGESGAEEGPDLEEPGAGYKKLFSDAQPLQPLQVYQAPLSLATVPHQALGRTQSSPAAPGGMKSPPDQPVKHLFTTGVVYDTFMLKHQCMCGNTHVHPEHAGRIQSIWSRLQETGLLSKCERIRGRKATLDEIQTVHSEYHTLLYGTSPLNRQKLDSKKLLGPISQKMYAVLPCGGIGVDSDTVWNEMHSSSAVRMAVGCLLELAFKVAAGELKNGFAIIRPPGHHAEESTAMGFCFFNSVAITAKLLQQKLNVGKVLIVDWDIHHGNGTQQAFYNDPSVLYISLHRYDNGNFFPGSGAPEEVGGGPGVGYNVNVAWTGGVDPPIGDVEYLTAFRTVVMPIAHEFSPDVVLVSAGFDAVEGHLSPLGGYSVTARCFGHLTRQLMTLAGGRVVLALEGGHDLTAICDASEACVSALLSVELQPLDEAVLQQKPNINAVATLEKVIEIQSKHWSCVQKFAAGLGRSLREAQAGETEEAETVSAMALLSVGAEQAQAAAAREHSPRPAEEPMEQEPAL
# Chain of UniProt P15907 (whole entry, looked up): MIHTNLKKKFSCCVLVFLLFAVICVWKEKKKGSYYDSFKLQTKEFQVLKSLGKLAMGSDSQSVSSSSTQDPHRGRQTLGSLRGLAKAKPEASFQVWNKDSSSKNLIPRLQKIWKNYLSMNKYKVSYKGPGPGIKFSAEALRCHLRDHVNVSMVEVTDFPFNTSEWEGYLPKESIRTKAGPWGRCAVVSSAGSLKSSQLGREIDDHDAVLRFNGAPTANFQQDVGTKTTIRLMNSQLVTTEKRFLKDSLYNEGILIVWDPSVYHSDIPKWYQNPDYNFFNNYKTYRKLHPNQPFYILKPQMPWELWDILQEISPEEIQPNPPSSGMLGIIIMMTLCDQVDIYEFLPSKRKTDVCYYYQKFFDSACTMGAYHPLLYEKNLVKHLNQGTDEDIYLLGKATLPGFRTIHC
# Chain of UniProt Q8VDG7 (whole entry, looked up): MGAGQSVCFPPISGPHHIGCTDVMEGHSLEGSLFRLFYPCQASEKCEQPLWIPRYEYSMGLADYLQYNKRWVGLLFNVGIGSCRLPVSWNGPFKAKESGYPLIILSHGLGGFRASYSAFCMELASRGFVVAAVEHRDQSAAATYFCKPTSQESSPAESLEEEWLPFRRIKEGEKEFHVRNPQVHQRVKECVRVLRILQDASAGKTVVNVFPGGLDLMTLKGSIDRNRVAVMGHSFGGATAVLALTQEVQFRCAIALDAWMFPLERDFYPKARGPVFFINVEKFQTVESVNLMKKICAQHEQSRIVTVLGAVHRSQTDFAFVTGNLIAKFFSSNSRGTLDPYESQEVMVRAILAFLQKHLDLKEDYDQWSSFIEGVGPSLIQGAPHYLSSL
# Chain of UniProt P62593 (whole entry, looked up): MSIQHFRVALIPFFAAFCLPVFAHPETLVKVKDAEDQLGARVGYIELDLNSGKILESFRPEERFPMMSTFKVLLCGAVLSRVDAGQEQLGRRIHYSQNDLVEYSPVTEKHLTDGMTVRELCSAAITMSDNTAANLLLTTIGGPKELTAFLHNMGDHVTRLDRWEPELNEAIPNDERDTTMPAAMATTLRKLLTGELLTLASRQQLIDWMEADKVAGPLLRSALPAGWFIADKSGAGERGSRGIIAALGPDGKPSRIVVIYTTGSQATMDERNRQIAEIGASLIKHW
SMILES,target,test,test system,setting,inhibition
O=C(N1CCCC1)n1cc(-c2ccc(-c3ccccc3)cc2)nn1,"Platelet-activating factor acetylhydrolase 2, cytoplasmic (Mus musculus, UniProt Q8VDG7)","enzyme activity, competitive ABPP-SILAC",mouse T cells,"3 nM, 4 h",> 97%
Cc1ccc(NC(=O)c2cccc(S(=O)(=O)N3CCOCC3)c2)c(C)c1,"Ectonucleoside triphosphate diphosphohydrolase 2 (Homo sapiens, UniProt Q9Y5L3)","enzyme activity, inhibitor, absorbance",,100 µM,31%
Oc1c(C(Nc2nc3ccccc3s2)c2ccccc2OCc2ccccc2)ccc2cccnc12 (stereo not shown),"Genome polyprotein, NS2B-NS3 protease (Dengue virus type 2, UniProt P14340)","enzyme activity, inhibitor, fluorogenic",,"10 µM, 0.1% CHAPS, added: Bz-Nle-Lys-Arg-Arg-AMC substrate",82.8 ± 1.06%
COc1ccc2c(c1)CC[C@@H]1[C@@H]2CC[C@@]2(C)CCC[C@@H]12,AKR1C3,"enzyme activity, inhibitor, absorbance",,"100 µM, pH 9",49.2%
COc1cc(C(=O)NC2CCC(N3CCN(CC4CCC5(CCCC5)C4)CC3)CC2)c(F)cc1Nc1ncc2c(n1)N(C1CCCC1(F)F)CC(F)(F)C(=O)N2C (stereo not shown),"MET (Homo sapiens, UniProt P08581)","cell-free assay, TR-FRET",,10 µM,8.12%
COc1ccc2c(c1)CC[C@@H]1[C@@H]2CC[C@@]2(C)C(=O)CC[C@@H]12,AKR1C3,"enzyme activity, inhibitor, absorbance",,"100 µM, pH 9",59.9%
COC(=O)[C@@H](CC(c1c[nH]c2ccccc12)c1c[nH]c2ccccc12)NC(=O)CC[C@@H](C)[C@H]1CC[C@H]2[C@@H]3CC[C@@H]4C[C@H](OC(C)=O)CC[C@]4(C)[C@H]3CC[C@]12C,"ST6GAL1 (Homo sapiens, UniProt P15907)","enzyme activity, inhibitor, UPLC",,25 µM,61%
O=C(Oc1nsnc1N1CCOCC1)N1CCOCC1,"Beta-lactamase TEM (bla, Escherichia coli, UniProt P62593)","enzyme activity, inhibitor, colorimetric nitrocefin",,up to 300 µM,no inhibition
COc1cc2c(cc1Br)[C@H]1CC[C@@]3(C)C(=O)CC[C@H]3[C@@H]1CC2,AKR1C3,"enzyme activity, inhibitor, absorbance",,"10 µM, pH 9",13.6%
NC(=O)c1ccc(C(=O)NOCc2ccc(Sc3cccc(Cl)c3)c(C(F)(F)F)c2)cc1,"HDAC5 (Homo sapiens, UniProt Q9UQL6)","cell-free assay, inhibitor",,100 µM,9.1%

# For quick reference, copied from above:
SMILES,target,test,test system,setting,inhibition
COc1cc2c(cc1Br)[C@H]1CC[C@@]3(C)C(=O)CC[C@H]3[C@@H]1CC2,AKR1C3,"enzyme activity, inhibitor, absorbance",,"10 µM, pH 9",13.6%
